# Experimental data of several laboratories.
# Compare with care: the assays were run in different laboratories.
# Slc6a4: Sodium-dependent serotonin transporter (Slc6a4, Rattus norvegicus, UniProt P31652)
# Chain of UniProt P31652 (whole entry, looked up): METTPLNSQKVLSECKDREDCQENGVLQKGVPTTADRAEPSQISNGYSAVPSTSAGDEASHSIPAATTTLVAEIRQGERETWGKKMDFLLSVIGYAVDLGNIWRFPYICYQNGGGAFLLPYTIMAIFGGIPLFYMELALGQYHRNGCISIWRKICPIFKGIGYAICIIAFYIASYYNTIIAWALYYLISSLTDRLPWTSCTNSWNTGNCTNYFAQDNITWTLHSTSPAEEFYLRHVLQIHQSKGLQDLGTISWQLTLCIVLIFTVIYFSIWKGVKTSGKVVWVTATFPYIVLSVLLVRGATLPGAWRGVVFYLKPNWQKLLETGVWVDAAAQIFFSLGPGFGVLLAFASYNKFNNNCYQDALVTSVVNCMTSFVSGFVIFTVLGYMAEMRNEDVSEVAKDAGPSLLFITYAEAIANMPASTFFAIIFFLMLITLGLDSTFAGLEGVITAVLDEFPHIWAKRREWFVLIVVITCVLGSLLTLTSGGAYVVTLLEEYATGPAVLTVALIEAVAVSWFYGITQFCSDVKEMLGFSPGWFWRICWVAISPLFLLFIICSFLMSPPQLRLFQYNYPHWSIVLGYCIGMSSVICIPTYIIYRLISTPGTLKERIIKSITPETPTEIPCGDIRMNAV
# 4'-phosphopantetheinyl transferase PptT: 4'-phosphopantetheinyl transferase PptT (Mycobacterium tuberculosis, UniProt O33336)
# Chain of UniProt O33336 (whole entry, looked up): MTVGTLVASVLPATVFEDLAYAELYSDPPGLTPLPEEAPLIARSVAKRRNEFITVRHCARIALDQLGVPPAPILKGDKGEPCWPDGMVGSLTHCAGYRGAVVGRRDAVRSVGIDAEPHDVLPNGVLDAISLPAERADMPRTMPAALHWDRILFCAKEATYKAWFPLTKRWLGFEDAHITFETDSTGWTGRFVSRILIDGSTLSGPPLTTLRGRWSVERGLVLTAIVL
# ADRA2A: Alpha-2A adrenergic receptor (ADRA2A, Homo sapiens, UniProt P08913)
# Chain of UniProt P08913 (whole entry, looked up): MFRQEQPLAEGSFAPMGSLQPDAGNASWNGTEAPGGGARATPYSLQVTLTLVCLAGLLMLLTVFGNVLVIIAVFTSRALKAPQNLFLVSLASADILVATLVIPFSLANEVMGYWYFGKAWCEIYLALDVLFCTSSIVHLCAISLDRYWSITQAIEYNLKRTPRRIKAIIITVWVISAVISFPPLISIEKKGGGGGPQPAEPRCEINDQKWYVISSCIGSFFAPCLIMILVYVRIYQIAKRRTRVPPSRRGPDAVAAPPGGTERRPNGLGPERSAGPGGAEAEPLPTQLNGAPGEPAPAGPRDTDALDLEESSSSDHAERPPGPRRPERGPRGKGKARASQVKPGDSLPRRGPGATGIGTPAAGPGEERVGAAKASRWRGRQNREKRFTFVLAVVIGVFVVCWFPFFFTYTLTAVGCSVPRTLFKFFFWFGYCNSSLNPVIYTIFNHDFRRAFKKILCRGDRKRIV
# Chain of UniProt Q6ZN16 (whole entry, looked up): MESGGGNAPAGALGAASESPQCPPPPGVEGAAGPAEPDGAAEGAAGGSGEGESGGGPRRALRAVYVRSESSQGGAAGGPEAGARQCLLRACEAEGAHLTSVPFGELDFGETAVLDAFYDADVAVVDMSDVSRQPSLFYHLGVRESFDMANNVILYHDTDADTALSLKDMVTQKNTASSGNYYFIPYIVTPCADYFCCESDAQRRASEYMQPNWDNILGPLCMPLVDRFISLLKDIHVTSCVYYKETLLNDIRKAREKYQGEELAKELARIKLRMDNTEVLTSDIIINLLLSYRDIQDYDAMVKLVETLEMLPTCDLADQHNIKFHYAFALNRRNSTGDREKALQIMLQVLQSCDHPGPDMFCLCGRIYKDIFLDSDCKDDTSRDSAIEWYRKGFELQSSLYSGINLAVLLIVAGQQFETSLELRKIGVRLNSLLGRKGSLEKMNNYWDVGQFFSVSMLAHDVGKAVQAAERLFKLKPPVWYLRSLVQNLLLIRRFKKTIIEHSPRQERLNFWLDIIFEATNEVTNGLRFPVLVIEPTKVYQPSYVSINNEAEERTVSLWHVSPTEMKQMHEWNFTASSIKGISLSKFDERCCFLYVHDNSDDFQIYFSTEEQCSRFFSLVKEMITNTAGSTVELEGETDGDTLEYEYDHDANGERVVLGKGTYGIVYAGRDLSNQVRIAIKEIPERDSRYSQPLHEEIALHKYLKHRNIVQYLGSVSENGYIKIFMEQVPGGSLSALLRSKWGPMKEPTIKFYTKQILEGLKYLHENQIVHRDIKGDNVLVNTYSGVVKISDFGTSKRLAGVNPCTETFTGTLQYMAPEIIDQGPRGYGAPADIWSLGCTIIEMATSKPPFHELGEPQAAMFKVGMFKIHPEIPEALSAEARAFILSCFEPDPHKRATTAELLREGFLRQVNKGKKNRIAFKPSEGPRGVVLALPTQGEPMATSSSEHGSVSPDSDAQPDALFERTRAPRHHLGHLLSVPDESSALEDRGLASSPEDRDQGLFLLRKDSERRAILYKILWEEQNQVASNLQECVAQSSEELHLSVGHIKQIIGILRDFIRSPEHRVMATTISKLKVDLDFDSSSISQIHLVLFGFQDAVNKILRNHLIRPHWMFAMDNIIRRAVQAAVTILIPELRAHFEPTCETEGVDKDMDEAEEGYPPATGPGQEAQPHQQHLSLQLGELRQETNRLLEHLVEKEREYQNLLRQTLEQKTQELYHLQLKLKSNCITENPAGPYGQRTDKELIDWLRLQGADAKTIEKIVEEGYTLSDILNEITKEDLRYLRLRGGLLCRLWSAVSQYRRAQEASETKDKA
# Chain of UniProt P9WG45 (whole entry, looked up): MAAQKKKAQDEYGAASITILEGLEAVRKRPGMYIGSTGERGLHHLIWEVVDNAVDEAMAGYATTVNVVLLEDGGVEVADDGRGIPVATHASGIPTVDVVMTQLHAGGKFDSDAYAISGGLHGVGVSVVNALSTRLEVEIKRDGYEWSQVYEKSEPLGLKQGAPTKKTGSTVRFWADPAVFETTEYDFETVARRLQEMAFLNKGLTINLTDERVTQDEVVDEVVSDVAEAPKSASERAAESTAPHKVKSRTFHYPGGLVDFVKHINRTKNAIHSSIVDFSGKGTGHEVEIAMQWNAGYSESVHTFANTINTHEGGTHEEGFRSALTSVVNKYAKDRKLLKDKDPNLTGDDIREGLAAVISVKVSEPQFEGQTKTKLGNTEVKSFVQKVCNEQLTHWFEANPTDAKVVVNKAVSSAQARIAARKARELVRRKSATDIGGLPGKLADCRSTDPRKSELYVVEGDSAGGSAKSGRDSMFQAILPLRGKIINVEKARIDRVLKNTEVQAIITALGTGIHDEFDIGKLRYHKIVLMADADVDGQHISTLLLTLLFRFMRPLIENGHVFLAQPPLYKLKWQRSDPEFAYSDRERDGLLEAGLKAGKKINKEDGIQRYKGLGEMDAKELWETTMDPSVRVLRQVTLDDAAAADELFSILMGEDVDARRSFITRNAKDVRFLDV
# Chain of UniProt P19525 (whole entry, looked up): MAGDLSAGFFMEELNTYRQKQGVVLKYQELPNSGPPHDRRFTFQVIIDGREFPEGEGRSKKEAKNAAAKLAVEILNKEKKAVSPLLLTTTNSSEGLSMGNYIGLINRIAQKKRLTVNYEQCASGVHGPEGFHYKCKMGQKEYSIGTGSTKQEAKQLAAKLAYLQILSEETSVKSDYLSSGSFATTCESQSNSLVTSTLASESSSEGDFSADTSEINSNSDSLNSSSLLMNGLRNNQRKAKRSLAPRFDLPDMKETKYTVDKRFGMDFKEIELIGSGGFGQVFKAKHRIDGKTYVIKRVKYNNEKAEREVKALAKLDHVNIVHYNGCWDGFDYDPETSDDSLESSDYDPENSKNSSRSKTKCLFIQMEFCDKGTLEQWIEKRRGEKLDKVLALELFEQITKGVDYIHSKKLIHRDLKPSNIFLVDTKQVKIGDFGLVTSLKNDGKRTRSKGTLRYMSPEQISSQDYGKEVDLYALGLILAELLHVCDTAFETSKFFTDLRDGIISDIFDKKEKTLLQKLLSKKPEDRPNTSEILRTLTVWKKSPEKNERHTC
# Chain of UniProt P9WG47 (whole entry, looked up): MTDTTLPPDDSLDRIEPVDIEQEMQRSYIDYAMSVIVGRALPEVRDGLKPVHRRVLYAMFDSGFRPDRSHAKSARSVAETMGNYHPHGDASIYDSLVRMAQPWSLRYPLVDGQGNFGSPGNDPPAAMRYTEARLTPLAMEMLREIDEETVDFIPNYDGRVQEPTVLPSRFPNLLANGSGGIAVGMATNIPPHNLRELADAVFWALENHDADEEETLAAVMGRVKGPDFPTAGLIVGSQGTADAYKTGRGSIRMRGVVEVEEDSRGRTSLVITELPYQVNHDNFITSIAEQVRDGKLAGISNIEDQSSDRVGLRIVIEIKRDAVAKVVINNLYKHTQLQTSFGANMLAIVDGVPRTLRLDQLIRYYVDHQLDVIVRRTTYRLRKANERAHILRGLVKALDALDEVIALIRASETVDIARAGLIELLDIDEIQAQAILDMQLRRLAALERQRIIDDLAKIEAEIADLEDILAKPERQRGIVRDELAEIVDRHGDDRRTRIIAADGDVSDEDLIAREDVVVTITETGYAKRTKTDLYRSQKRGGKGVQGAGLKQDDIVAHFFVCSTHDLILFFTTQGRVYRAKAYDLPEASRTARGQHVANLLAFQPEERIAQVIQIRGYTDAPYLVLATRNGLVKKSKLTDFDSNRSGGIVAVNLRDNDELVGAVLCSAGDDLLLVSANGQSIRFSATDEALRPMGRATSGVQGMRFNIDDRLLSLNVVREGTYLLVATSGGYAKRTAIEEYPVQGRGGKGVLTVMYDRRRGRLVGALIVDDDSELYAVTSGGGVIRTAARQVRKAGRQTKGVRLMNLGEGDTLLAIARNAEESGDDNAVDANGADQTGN
Structure (SMILES),target,assay,conditions,quantity,value
CC(NC(C)(C)C)C(=O)c1ccccc1 (stereo not drawn),Slc6a4,"transporter uptake, inhibitor, radiometric",,IC50,> 10 µM
Cc1nn(C)cc1-c1nc2c(N3CCN(Cc4ccc(Cl)cc4)CC3)c(Cl)cnc2[nH]1,"Serine/threonine-protein kinase B-raf (BRAF, Homo sapiens, UniProt P15056)","binding, competition with immobilised ligand",1 µM,remaining binding,100%
C[C@]12CC[C@@H]3c4ccc(OS(=O)(=O)O)cc4CC[C@H]3[C@@H]1CCC2=O,"Solute carrier family 22 member 11 (SLC22A11, Homo sapiens, UniProt Q9NSA0)","transporter uptake, inhibitor, radiometric",,IC50,3.8 µM
Cc1nnc2n1-c1ccc(Cl)cc1C(c1ccccc1)=NC2,"Cytochrome P450 2C19 (CYP2C19, Homo sapiens, UniProt P33261)","enzyme activity, inhibitor, fluorescence",,IC50,444 µM
O=c1c2cccc(Cl)c2[nH]c(=S)n1Cc1cccnc1,4'-phosphopantetheinyl transferase PptT,"enzyme activity, inhibitor, FP",,IC50,20 µM
CNC(C)C(=O)c1cccc(Cl)c1 (stereo not drawn),Slc6a4,"transporter uptake, inhibitor, radiometric",,IC50,1.1 µM
CNC(C)Cc1ccc2c(c1)OCO2 (stereo not drawn),"Solute carrier family 22 member 2 (SLC22A2, Homo sapiens, UniProt O15244)","transporter uptake, inhibitor",,IC50,1.91 µM
COc1ncccc1-c1cnn2ccc(N3CCN(C(=O)OC(C)C)CC3)nc12,"Interferon-induced, double-stranded RNA-activated protein kinase (EIF2AK2, Homo sapiens, UniProt P19525)","binding, competition with immobilised ligand",1 µM,remaining binding,79%
[2H]c1c([2H])c([C@]2([2H])CCCN2C(=O)C(C)(C)Oc2ccc3cn[nH]c3c2)c([2H])c([2H])c1C([2H])([2H])[2H],"Mitogen-activated protein kinase kinase kinase 15 (MAP3K15, Homo sapiens, UniProt Q6ZN16)","binding, competition with immobilised ligand",1 µM,remaining binding,67%
COc1ccc2c(c1)[C@]13CCCC[C@@H]1[C@H](C2)N(C)CC3,ADRA2A,"ligand displacement, radioligand",,IC50,11.2 µM
NS(=O)(=O)c1nnc(NC(=O)CN2CCN(c3cc4c(cc3F)c(=O)c(C(=O)O)cn4C3CC3)CC2)s1,"DNA gyrase subunit A/DNA gyrase subunit B (Mycobacterium tuberculosis, UniProt P9WG45+P9WG47)","enzyme activity, inhibitor",,IC50,5.6 µM
Nc1ncc(-c2nc(N3CCOCC3)nc(N3CCOCC3)n2)c(C(F)F)n1,"Bone morphogenetic protein receptor type-1A (BMPR1A, Homo sapiens, UniProt P36894)","binding, competition with immobilised ligand",10 µM,remaining binding,93%
COC(=O)/C=C/C(=O)N[C@@H]1CC[C@@]2(O)[C@H]3Cc4ccc(O)c5c4[C@@]2(CCN3CC2CC2)[C@H]1O5,"Mu-type opioid receptor (Oprm1, Rattus norvegicus, UniProt P33535)","ligand displacement, radioligand",cell membranes,IC50,0.00408 µM
CC(C)C(=O)OCc1cc2[nH]c(=S)n(Cc3cncnc3)c(=O)c2cc1Cl,4'-phosphopantetheinyl transferase PptT,"enzyme activity, inhibitor, FP",,IC50,18 µM
CC(C)Oc1cccc(CCN)c1,"Beta-2 adrenergic receptor (ADRB2, Homo sapiens, UniProt P07550)","calcium signal, antagonist, fluorescence",,IC50,33 µM
O=c1c2cc(Cl)cnc2[nH]c(=S)n1Cc1cccnc1,4'-phosphopantetheinyl transferase PptT,"enzyme activity, inhibitor, FP",,IC50,> 100 µM
CC(C)NC(C)C(=O)c1cccc(Cl)c1 (stereo not drawn),Slc6a4,"transporter uptake, inhibitor, radiometric",,IC50,3.41 µM
C[C@H](N)C(=O)OCc1cc2[nH]c(=S)n(Cc3cncnc3)c(=O)c2cc1Cl,4'-phosphopantetheinyl transferase PptT,"enzyme activity, inhibitor, FP",,IC50,3.07 µM
C=CCN1CC[C@]23c4c5ccc(O)c4O[C@H]2C(=O)CC[C@]3(O)[C@H]1C5,"Sodium-dependent noradrenaline transporter (SLC6A2, Homo sapiens, UniProt P23975)","transporter uptake, inhibitor, radiometric",,IC50,> 10 µM
O=c1[nH]c2ccc(Cl)cc2c(=S)n1Cc1cccnc1,4'-phosphopantetheinyl transferase PptT,"enzyme activity, inhibitor, FP",,IC50,> 100 µM
CN1CC[C@]23CCCC[C@H]2[C@H]1Cc1ccc(O)cc13,ADRA2A,"ligand displacement, radioligand",,IC50,8.98 µM
